Published values of several laboratories.
A part holds a random share of what one study measured.

Study 1 — method: aptamer microarray, sandwich; form: DNA with 2'F-ANA; medium: in vitro; concentration: 200 nM; with: Cy3 exosite-II aptamer, 400 nM; reading: higher = stronger binding; strand: GGTTGGTGTGGTTGG
Target: Prothrombin, mature alpha-thrombin (F2, Homo sapiens, UniProt P00734)
Notes: whole 15-mer aptamer, many near background
| Modification | mean fluorescence intensity [a.u.] |
| --- | --- |
| 2'F-ANA at 4 5 6 9 11 13 14 15 | 47.4 |
| 2'F-ANA at 1 2 3 5 8 10 11 14 15 | 48.8 |
| 2'F-ANA at 1 4 5 8 10 12 15 | 46.7 |
| 2'F-ANA at 1 2 3 4 5 6 9 14 | 63.9 |
| 2'F-ANA at 3 9 10 11 14 15 | 368 |
| 2'F-ANA at 1 2 4 5 6 7 11 13 | 54.5 |
| 2'F-ANA at 3 4 5 6 7 9 10 12 14 | 50.1 |
| 2'F-ANA at 1 4 8 9 10 | 53.6 |
| 2'F-ANA at 3 6 10 14 | 399 |
| 2'F-ANA at 1 3 5 6 8 10 13 15 | 48.9 |
| 2'F-ANA at 1 3 5 7 8 9 10 12 13 15 | 57.7 |
| 2'F-ANA at 6 7 8 10 11 12 13 14 15 | 119 |
| 2'F-ANA at 2 3 4 5 7 11 13 14 | 49.5 |
| 2'F-ANA at 1 2 3 4 5 6 8 9 10 11 12 | 52 |
| 2'F-ANA at 1 3 5 8 10 11 | 44.6 |
| 2'F-ANA at 4 5 9 10 15 | 43 |
| 2'F-ANA at 1 4 6 9 10 12 13 14 | 61.7 |
| 2'F-ANA at 2 3 6 7 8 9 11 12 15 | 858 |
| 2'F-ANA at 1 5 6 12 14 | 45.8 |
| 2'F-ANA at 1 2 3 6 7 8 12 13 14 | 91.4 |
| 2'F-ANA at 1 2 3 4 5 6 11 12 14 15 | 49.2 |

Study 2 — method: EMSA with sequencing; form: double-stranded DNA, one strand shown; medium: in vitro; concentration: 10 and 20 nM; baseline: negative control set to 0; reading: higher = stronger binding
Target: Hepatocyte nuclear factor 3-alpha (Foxa1, Mus musculus, UniProt P35582, residues 1-468, full length assumed)
UniProt P35582, sequence (whole entry, looked up): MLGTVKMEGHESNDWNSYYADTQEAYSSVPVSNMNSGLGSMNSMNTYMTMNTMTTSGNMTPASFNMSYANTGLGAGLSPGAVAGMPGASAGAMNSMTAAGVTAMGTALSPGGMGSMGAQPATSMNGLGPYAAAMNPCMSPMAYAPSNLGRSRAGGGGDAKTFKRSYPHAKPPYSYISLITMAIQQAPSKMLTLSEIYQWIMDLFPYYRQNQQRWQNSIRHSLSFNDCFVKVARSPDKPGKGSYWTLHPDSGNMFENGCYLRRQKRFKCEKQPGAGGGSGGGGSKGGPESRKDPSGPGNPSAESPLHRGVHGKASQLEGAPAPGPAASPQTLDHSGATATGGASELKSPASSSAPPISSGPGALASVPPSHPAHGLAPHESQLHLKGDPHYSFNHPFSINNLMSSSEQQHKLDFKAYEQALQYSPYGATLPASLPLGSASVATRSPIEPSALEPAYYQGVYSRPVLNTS
Notes: whole designed probe, mean of two concentrations, ends assumed
All sequences stand within: GTGAGCGGTGCCCATTGATGGGGAAC … TTTCACTGGGATCGTGGGGAC
| Strand | normalised bound fraction [ratio] |
| --- | --- |
| ATCTTCCCCCTCTTCCTTGCCCCACCAGCTCACCTACGGGGGTTATTTGCACAAAGGAAAATAAATAAAGCCGGCATTCGTTAACCCTCTTCTGGCGCAAACTGCTGTTTGCTCTGGATCTAACATGGTCCTTTGGCGACGCCAGGCTCCGGGAGAGCAAAGCACCGTGTCAGGGCCATGATCCGGGCTCGCC | 0.381 |
| AACAATTTAATTCCATTTTTATCAATGATATCTTCTTCTATGGAAGAAAATTAAGATAATTCAATGTTTTCCTACATCATTTAATATAAGGTTTATTTACTCTTGGAAACTTCCATTCTTTATTGCTCCTCAACAATAGCAACCACAAAAATTCCCATAATTCTCTCTTTAAAGATCAACCAAAATTAAGGAA | 0.241 |
| GCCGTTGGTTCATGCTGTGGCTACTGCCAATTCTTTAAGTGTTCCCTCACCTCAAATCTTTGATGCACGAGGTCCAGCAGTCGTCACTACTAAGTCAACACTGAGACATGTAAATGTTTGTGAAATGAGTAATAACCAGGATGGTACAATTAAGCTCCCCATGAGCTCCTCCCCACTGCCACCTCAGGCCTCA | 0.314 |
| CTCCTGACCTGGGACCCCACAGAGCTGGGCCTGTCATCACATTTATGGGGCTGCAGCTGACCTGGGAACTCCCTTCCTCAGTCAGTCCACAAATATTTACCCAGAGCCTCAGGGTGCTCAGTGACCTTTACAAAACAAAGTGCAGAGTCACGTGCCAGGGCACAGCAATCCCGGGCAAAACAGACCGAAACCC | 0.144 |
| CCACATCACACTGTTGCCACAAGCAGGATACAGTCATCACACAAACAGAGGATTATTACTTCTCAGCCACTCTTCTGCTATCTTCTTACTGAGTAAACATCGAGAACTCAGTCCTTTGTGATGTACTAATATGAAACAGGAAAGGGAAAGCCCTAGGTGGCCATGATATAGTTAGTGCCTACGTTTCCAAGAA | 0.377 |

Study 3 — method: RNA Bind-n-Seq; form: RNA; medium: in vitro; concentration: 365 nM; baseline: no-protein control; reading: higher = stronger binding
Target: RNA binding protein fox-1 homolog 2, RRM domain, GST-SBP tag (RBFOX2, Homo sapiens, UniProt O43251-10, residues 100-194)
Notes: natural RNA segment, single round, ends assumed
All sequences stand within: GGGAGUUCUACAGUCCGACGAUC … UGGAAUUCUCGGGUGCCAA
Target sequence (chain): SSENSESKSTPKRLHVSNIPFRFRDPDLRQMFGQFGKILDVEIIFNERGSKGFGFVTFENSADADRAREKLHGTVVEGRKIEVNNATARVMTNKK
| Strand | RBNS enrichment (R) |
| --- | --- |
| AUCUGGAAGACAAGGUCAUUUCAUCUUGAGAUCAUGGUGAAAUAUUUUGGAUAUAUAAAUUCCUUAAGCUAUUGUAACCAUGUUUUAUUGCAAAGAUGUAAAAUAUGCCA | 0.314 |
| CCCAGGACUCUAAAUUAUUGGGGUAAAAAACAGCCUUGCAAGAAAAAGGGGAGCUAUUUUUGCUUUUUAUGUUUUUUAUUGUUAAACUUGUAUCCCUUUAAAAACUGAAG | 0.903 |
| UGGGUGUUUGCAUCAUAAUGUCAUCUUGGGAAACAGAAAAGAAGGUGGGCCAACCCUCAUGUCCCCCACUCCCUUGCAUUAUUUCUUUGUGUCUUGUUCAGGAGAAAAGA | 4.97 |
| CAUAAAGGGGCUACCUUGAGAGAAAAUACAAACGCUCUCCUGUUGAUGAUUUGUGCAUUUUAAAAAAUGAGUUUCUUUCCCUCUUAGCACCCCUCCUUCCUGUCUGGUUA | 0.43 |
| AGACGCGGUGUGUGGUCUGCUUCAGUGACUUCGAGGCGCGGCAGCUGCUCCGAGUCCUCCCCUGCAACCAUGAGUUCCACACCAAGUGUGUUGACAAGUGGUUGAAGGCC | 0.36 |
| UUGGUGUGGAGGGUACUGCCUUGGCCUGUGGCGUUUGUCCUGUCUCAUCUCUCCCAGCAUCCAUAGGAACACACUAACAUUGGGAUGGCAGGCACAUCCUGGUACUGGCA | 2.28 |
| UGUUUUGUUUUGUUUUUCAAGACAGGGUUUCUCUGUAUAGCCCUGGAUGUCCUGGGACUCACUCUGUAAACCAAGCUGGCCUCAAACUCAGAAAUCCGCCUGCCUCUGCC | 0.647 |
| UUCUUUUUUUCAACUCUCCAUCAAAUGUGCCUUAAAGUUAAGCAUUUUGACCCAAGUGUUUUAACUUAGUCCAGAAUAGUUUCCUUUGUCUUUUGUAACUUUACAGAGGA | 0.568 |

Study 4 — method: protein binding microarray; form: double-stranded DNA, one strand shown; medium: in vitro; concentration: not given; baseline: not given; reading: higher = stronger binding
Target: Histone acetyltransferase KAT6A, winged helix 2, GST fusion (KAT6A, Homo sapiens, UniProt Q92794, residues 85-181)
Notes: 8-mer, flanks averaged, mean of 2 arrays, mostly near background
Construct (chain): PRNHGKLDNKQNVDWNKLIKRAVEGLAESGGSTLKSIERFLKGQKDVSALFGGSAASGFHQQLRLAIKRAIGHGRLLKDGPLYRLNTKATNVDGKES
| Strand | E-score |
| --- | --- |
| CTGTTTAA | -0.0175 |
| CCGGGGAA | 0.125 |
| GCTGAGCA | 0.142 |
| AATTCGCC | 0.229 |
| TGAGGGAA | -0.0289 |
| CCTAATAA | 0.0811 |
| CAGACTAC | -0.0246 |
| CTAATTGC | 0.0837 |
| CCGAGTAG | 0.129 |
| ACTCTAAA | -0.0512 |
| ATGTTCCC | -0.0443 |
| AATGTCAG | -0.175 |
| GGCCCGAA | 0.148 |
| ACTCACTG | 0.0482 |
| ATCTGCAG | 0.0343 |
| CTTTCCCC | 0.0466 |
| CTATCATC | 0.0926 |
| GGAGGGAA | 0.108 |
| CGATGCCC | 0.0206 |
| AGTAGGCC | 0.00407 |
| ATGACGAC | -0.0092 |
| CAGCGTAA | -0.0557 |
| CCCTCCGG | 0.186 |

A few entries again (study 1):
| Modification | mean fluorescence intensity [a.u.] |
| --- | --- |
| 2'F-ANA at 1 3 5 7 8 9 10 12 13 15 | 57.7 |
| 2'F-ANA at 1 5 6 12 14 | 45.8 |
| 2'F-ANA at 2 3 6 7 8 9 11 12 15 | 858 |
| 2'F-ANA at 1 2 3 4 5 6 8 9 10 11 12 | 52 |
| 2'F-ANA at 1 3 5 8 10 11 | 44.6 |
